Measurements from different studies.
A part holds a random share of what one study measured.

Set 1
Target: Sal-like protein 4, full length isoform A (SALL4, Homo sapiens, UniProt Q9UJQ4, residues 1-1053)
UniProt Q9UJQ4, sequence (whole entry, looked up): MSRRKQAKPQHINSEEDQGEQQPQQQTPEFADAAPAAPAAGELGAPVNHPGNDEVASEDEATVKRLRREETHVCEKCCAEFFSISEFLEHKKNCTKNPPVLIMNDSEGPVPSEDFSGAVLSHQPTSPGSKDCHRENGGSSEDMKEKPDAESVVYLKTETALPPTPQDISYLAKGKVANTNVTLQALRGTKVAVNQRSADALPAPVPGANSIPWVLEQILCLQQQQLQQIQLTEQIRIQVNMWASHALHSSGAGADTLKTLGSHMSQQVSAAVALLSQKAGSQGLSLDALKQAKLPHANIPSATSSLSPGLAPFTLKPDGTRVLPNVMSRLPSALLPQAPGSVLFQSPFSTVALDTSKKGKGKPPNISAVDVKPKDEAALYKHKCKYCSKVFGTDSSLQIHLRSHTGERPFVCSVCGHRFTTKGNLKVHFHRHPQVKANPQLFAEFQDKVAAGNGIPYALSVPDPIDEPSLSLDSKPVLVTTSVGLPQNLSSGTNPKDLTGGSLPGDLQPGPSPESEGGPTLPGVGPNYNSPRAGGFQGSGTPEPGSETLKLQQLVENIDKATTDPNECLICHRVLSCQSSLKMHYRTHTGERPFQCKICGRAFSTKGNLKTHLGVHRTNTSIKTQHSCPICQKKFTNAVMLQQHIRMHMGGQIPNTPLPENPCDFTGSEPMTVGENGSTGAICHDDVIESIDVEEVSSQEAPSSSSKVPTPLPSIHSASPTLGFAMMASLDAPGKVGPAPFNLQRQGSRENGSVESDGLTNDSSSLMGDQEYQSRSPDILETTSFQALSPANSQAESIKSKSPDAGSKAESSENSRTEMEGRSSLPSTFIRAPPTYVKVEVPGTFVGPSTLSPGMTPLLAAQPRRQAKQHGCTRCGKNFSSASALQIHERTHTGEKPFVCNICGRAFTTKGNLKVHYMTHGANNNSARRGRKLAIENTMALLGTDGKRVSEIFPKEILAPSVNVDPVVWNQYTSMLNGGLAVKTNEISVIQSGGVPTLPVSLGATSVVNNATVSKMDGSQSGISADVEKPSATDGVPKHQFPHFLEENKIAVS
Technique: universal PBM
Form: double-stranded DNA, one strand shown
Matrix: in vitro
Concentration: 600 nM
Setting: 8-mer, flanks averaged, mean of replicates
Reading: higher = stronger binding
The E-score of `AGTGGGTC` is reported as -0.265.
`ACGGCGGC` has an E-score of -0.377.
`ACGCGGCT` gave an E-score of -0.121.
`ATTTCAGC` gave an E-score of 0.168.
The E-score of `AAACATTC` is reported as 0.135.
`CTCCAGAA` gave an E-score of -0.166.
`AGGTAAGC` has an E-score of -0.137.
`AACCATAC` gave an E-score of 0.132.
With `GAACGCTC` the E-score was -0.217.
With `CGGAGTCA` the E-score was -0.217.
`AACCACCG` gave an E-score of -0.125.
For `AGAAGCTA`, the E-score was 0.036.
For `ATCCTGTC`, the E-score was 0.0718.
The E-score of `AAGCTCGG` is reported as -0.213.
With `ATGAAAAC` the E-score was 0.314.
`ACCTATCT` gave an E-score of 0.118.
With `GAAGTAAC` the E-score was 0.0407.
For `CCCTGACC`, the E-score was -0.276.
For `ATCCGATA`, the E-score was 0.127.
The E-score of `ATCGCCAA` is reported as -0.0431.
The E-score of `CGCGTGAG` is reported as -0.12.
`CATGAGGG` gave an E-score of -0.0863.
For `AGTCGAGC`, the E-score was -0.314.
`CTACTTGA` gave an E-score of -0.0337.
`ACTACGAC` has an E-score of -0.105.

Set 2
Target: Histone acetyltransferase KAT6A, winged helix 1, GST fusion (KAT6A, Homo sapiens, UniProt Q92794, residues 1-85)
Technique: protein binding microarray
Form: double-stranded DNA, one strand shown
Matrix: in vitro
Concentration: not given
Setting: 8-mer, flanks averaged, mean of 2 arrays, mostly near background
Reference: not given
Reading: higher = stronger binding
Construct (chain): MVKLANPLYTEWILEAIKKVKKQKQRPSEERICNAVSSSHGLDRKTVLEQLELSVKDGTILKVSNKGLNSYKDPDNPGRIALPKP
`AGAGTGGG` gave an E-score of -0.0741.
`AGCCCAGG` has an E-score of -0.242.
The E-score of `AGAAGTCA` is reported as -0.174.
`ATAGCTTG` has an E-score of -0.214.
For `AAAGGTCT`, the E-score was -0.0729.
For `AAAGTAGG`, the E-score was -0.0534.
`GAGGACCA` has an E-score of -0.147.
`GCGATCAA` gave an E-score of 0.0015.
For `GCATCAAA`, the E-score was -0.0673.
The E-score of `ACTTTATG` is reported as -0.171.
The E-score of `CATTGAGG` is reported as -0.167.
For `TAGTCCGA`, the E-score was 0.0218.
With `CTCGTGTC` the E-score was -0.168.
The E-score of `AAAAAATG` is reported as -0.183.
`TCTAAGAA` gave an E-score of -0.127.
The E-score of `TAGCAGAA` is reported as -0.277.

Set 3
Target: RNA binding protein fox-1 homolog 2, RRM domain, GST-SBP tag (RBFOX2, Homo sapiens, UniProt O43251-10, residues 100-194)
Technique: RNA Bind-n-Seq
Form: RNA
Matrix: in vitro
Concentration: 365 nM
Setting: natural RNA segment, single round, ends assumed
Reference: no-protein control
Reading: higher = stronger binding
Residues (chain): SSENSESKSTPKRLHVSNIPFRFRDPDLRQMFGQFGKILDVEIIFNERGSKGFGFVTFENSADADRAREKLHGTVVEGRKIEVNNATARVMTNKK
`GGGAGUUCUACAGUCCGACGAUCAUGCUGACAGUCUUGCAGCAUGGGAACAAAGACAUCAUAUUUUGCUUCAAAUUCUCUUUCAGUAGUACAAUAGCAGGGGGAAAGGGGACAGGUAACAGGAGUACCUUUGUUGGAAUUCUCGGGUGCCAA`: “RBNS enrichment (R)” 0.641.
`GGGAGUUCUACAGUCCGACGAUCGCGAGUAGAGAGCAGCCCUCAUUCACCACCUGGUCCCAGACGUGCUUCAGUCCUCGUCCUCUCUUUGUGGCUGGCUCCCAGCCUUCUCUUUCCUCUUGAGGAUACUUAGGUGGAAUUCUCGGGUGCCAA`: “RBNS enrichment (R)” 0.293.
For `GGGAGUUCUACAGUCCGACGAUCCAAACCAUUUUCAGAGACUUUGGGGAAUGCAGUGAUCAGAAGUGGCUAAUUUAUUUUAUUUCUGAUUAUUUUAUCCAGAGGGUACUUUUUUAAUGGAUAUUUGUAAAUCUUGGAAUUCUCGGGUGCCAA`, “RBNS enrichment (R)” read 0.841.
Under “RBNS enrichment (R)”, `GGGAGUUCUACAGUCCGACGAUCAUCUUCAUUUUCUGACAGUCAAAGUGUGAAGGAACCCAGACUUCCCCGAGCCACGGUGUUCAGUCAGCCCACAGGAAUAUGCAAGACCCAUCUCCAAAAGUUUGUCUUUGUGGAAUUCUCGGGUGCCAA` is recorded as 0.363.
For `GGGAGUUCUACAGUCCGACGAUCAUGUCCCUCCCCUCACUGCCCCACAUUCUCCCAGUGGCUCUACCAGCCUCACCCAUCAAACCAGUGAAUUUCUCAAUCUUGCCUCACAGUGACUGCAGCGCCAAGCGGCAUGGAAUUCUCGGGUGCCAA`, “RBNS enrichment (R)” read 0.889.
`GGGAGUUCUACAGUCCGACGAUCAUGUCUAUAAUAAGAACCUCCCCGCAACCAUACGAAGUAUAACCAUACAUCUAUAGUUCUCCCCCGGGGAGCUAGUGUUUGAACUUUGAAGUCUGCUCAGCUGCAUGGUGUGGAAUUCUCGGGUGCCAA`: “RBNS enrichment (R)” 1.5.
For `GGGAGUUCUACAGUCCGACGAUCUGGUUCCUCUCCCUUUUCCCCUGGUCACGGCUACUCAUGGAAGCAGGACCAGUAAGGGACCUUCGAUAAAAAAAAAAAAGACAAUAAUAAAAAGGCUCAUUAAUGGGAUGUGGAAUUCUCGGGUGCCAA`, “RBNS enrichment (R)” read 0.393.
Under “RBNS enrichment (R)”, `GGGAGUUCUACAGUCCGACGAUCAAGAGAACUUCUCAGUCUCCAGGAAGAUAGCAUCUUUUCAUGAGUGUUUGAAUGAAAACAACACGAAGGCUCAAUAUCACAUGGAUUUCCCAGUUUCUGUCUUUAAUAAGUGGAAUUCUCGGGUGCCAA` is recorded as 0.423.

Set 4
Target: RING finger protein unkempt homolog, zinc fingers 1-6, GST-SBP tag (UNK, Homo sapiens, UniProt Q9C0B0, residues 30-357)
UniProt Q9C0B0, sequence (30-357, looked up): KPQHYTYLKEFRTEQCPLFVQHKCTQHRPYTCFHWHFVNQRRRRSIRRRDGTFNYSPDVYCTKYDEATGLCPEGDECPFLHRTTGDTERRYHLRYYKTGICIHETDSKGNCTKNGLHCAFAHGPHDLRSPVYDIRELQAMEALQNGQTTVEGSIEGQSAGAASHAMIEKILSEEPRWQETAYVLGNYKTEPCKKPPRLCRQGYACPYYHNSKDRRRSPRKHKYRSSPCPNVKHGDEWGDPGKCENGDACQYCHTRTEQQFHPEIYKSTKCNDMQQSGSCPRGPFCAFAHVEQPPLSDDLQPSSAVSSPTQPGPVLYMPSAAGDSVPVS
Technique: RNA Bind-n-Seq
Form: RNA
Matrix: in vitro
Concentration: not given
Setting: RNA with constant flanks, human and mouse sites, ends assumed
Reference: input RNA pool
Reading: higher = stronger binding
The bound/input enrichment of `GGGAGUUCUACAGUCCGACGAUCAGACCAUGAAUUAUGGAAUUUCCUAAAUGAAGCAUUCAGGAAUGGAAUGAGAGAAUGUCACAUAGAAAAUAAAUGAUUUUUAAGUUAUGUCUAUUAAUUUGACUCUAGAUAUAUAUAUUUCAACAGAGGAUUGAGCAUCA` is reported as 19.9 ratio.
`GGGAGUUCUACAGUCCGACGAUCUUCGGUGCCAUUGGCUUCUUCUGGGUUGAGUAAAUUGUCAGAUACUGCUCAUCAUUUGCAAUAGUUUUCCCUGAGUGAGGCUGAAGCCUCAGGUUCCUUCAAAACACGCUAUCUAGAGAGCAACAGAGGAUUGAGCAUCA` has a bound/input enrichment of 0.295 ratio.
`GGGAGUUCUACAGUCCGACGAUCGUCGCUCUGUAUGCGAUCAGUGCUGUCUACUUUGCCGGAGUGAUGGUGCGGCUGAUGCUGACUCUGACCCCGGUCGUCUGCAUGCUGUCGGCCAUCGCCUUCUCCAAUGUUUUUGAGCACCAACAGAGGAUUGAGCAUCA` has a bound/input enrichment of 0.0808 ratio.
With `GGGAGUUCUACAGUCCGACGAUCGAGUCAUCUGACUGGAUGAAGACUGUUCCAAGUUACAACCAAACAAAUAGCUCCAUGGACUUUAGAAAUUAUAUGAUGAGAGAUGAGACUCUGGAACCACUGCCCAAAAACUGGGAAAUGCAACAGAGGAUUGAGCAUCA` the bound/input enrichment was 24.1 ratio.
For `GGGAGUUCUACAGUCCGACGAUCAGAUUUUGUGCUUGAUUUUUAAGAAUGGAAUCAUGGGAAUUUUUUUCUUUUUUUUUUUUUAAUGUAUCUUGACUGUUGUCUGUCUUGUUCCUGACCUGGCACGCUGACAGUACCUUGUCCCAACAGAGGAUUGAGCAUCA`, the bound/input enrichment was 0.421 ratio.
The bound/input enrichment of `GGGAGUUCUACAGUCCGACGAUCGGAGACAAGUGCACCAAACCCUUACCUUAUGAACCUUAUAAGGCCCUCCAUGGGCCCUUGCCUCUAUGUCUUCUUAAAGGUAAGAGGGCUCACUCCAAAUCUCUGGACUACCUCAAUCUACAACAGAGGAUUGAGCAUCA` is reported as 0.183 ratio.
The bound/input enrichment of `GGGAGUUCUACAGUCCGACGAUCUUCUGAUAAUUCUAGAGCCUGUUACCAUAGAAAGGUAUUUCUUCAAUGGCUGGUUGUAGUUAGUUCAUGUUUUUCAAUCAAUUUGCAAAUGUAUUUGUUGCUGUAUAGUGAUUGUUUUGCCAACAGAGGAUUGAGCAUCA` is reported as 2.42 ratio.
For `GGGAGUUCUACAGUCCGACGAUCAAUGAUCUCCUGUGCAACGUAGACGUCAGUGAUUUGUCUUUUCAUGAUUCCUUGGCUACUUUUGUUGCUAUCCUCAUCGCCCGUCAAUGUUUGCUCCUAGAAGACCUGAUUCGCUGUGCACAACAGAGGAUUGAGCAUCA`, the bound/input enrichment was 0.198 ratio.

Set 5
Molecule: PhoQ, residues 284 288 289 292 302 303 AGHLVA
Technique: Sort-seq
Refers to: YFP reporter
Matrix: E. coli
Setting: PhoQ-PhoP variant library
With: 10 µM Mg2+
Reference: high Mg2+ state
Reading: higher = stronger signaling
It gave 3.66 for fold induction (PhoP, residues 12 14 15 18 19 ICWRQ (Escherichia coli, UniProt P23836)).
It gave 14.6 for fold induction (PhoP, residues 12 14 15 18 19 VHTVL (Escherichia coli, UniProt P23836)).
PhoP, residues 12 14 15 18 19 TQCLL (Escherichia coli, UniProt P23836) — fold induction: 9.43.

Excerpt of the above (set 2):
For `GCATCAAA`, the E-score was -0.0673.
The E-score of `AAAAAATG` is reported as -0.183.
The E-score of `TAGCAGAA` is reported as -0.277.
`GAGGACCA` has an E-score of -0.147.
`ATAGCTTG` has an E-score of -0.214.
`TCTAAGAA` gave an E-score of -0.127.
`AGCCCAGG` has an E-score of -0.242.
`AGAGTGGG` gave an E-score of -0.0741.
